{"data": "Measured values of several laboratories", "note": "Numbered parts are unrelated; each lists some results of a single study."}
{"data": "Block 1", "target": "Prothrombin, mature alpha-thrombin (F2, Homo sapiens, UniProt P00734)", "method": "aptamer microarray, sandwich", "molecule type": "DNA with 2'F-ANA", "sample": "in vitro", "concentration": "200 nM", "setting": "whole 15-mer aptamer, many near background", "added": "Cy3 exosite-II aptamer, 400 nM", "direction": "higher = stronger binding"}
{"Strand": "GGTTGGTGTGGTTGG (2'F-ANA at 1 3 4 8 9 11 14)", "mean fluorescence intensity": "66.7 a.u."}
{"Strand": "GGTTGGTGTGGTTGG (2'F-ANA at 5 6 7 8 11 14 15)", "mean fluorescence intensity": "42.9 a.u."}
{"Strand": "GGTTGGTGTGGTTGG (2'F-ANA at 3 5 6 7 8 10 11 12 14)", "mean fluorescence intensity": "50.6 a.u."}
{"Strand": "GGTTGGTGTGGTTGG (2'F-ANA at 1 2 3 5 7 9 15)", "mean fluorescence intensity": "62.2 a.u."}
{"data": "Block 2", "target": "Ras GTPase-activating protein-binding protein 1, full length (G3BP1, Homo sapiens, UniProt Q13283)", "method": "RNA Bind-n-Seq", "molecule type": "RNA", "sample": "in vitro", "concentration": "200 nM", "setting": "whole 134-nt RNA, ends assumed", "added": "150 mM KCl", "relative to": "input library", "direction": "higher = stronger binding", "sequence of UniProt Q13283 (whole entry, looked up)": "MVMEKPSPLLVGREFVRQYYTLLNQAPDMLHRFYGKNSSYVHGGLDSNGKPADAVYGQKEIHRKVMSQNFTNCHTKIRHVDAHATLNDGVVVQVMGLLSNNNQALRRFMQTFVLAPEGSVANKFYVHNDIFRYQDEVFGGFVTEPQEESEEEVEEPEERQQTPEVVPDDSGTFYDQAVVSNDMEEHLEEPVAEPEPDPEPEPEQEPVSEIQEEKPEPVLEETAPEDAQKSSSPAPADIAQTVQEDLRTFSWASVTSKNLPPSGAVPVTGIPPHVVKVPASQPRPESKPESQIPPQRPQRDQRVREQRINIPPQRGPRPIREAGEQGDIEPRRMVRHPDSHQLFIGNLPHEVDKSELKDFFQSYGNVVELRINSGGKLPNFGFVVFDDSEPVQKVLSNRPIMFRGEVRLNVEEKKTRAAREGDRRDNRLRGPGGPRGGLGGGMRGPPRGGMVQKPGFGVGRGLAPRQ"}
{"Strand": "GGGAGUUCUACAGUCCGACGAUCGUCCUGUGCUACACAUCGUAUGUACCGAAUCAAAUUUUUAAAUUUUUAAACCCCCAAAAAAGUAUUAUGUUACGCCGUUCGGAUCUGCACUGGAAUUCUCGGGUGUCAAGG", "log2 enrichment": -0.122}
{"Strand": "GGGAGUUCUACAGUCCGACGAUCCACAGACAACACGCACCCACACAGACACAGAGGGAAGGGGUUGGGAUGGGGACCGGGUGCACAGCAGGGCGGGGUAGGACCCCAGCCCCUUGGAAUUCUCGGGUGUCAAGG", "log2 enrichment": 1.9}
{"Strand": "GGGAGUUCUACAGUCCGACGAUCCAAGUCCUGUGCUACACAUCGUAUGUACCGAAUCGGGUUUUUUUGGGAGGGUGGGAAAGUAUUAUGUUACGCCGUUCGGAUCUGCACUUCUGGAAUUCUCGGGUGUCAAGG", "log2 enrichment": 0.483}
{"Strand": "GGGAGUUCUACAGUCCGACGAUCUGUGCUACACAUCGUAUGUACCGAAUCGGGAAAAAAAGGGGAAAAAAAGGGGAAAAAAAGGGGAAAGUAUUAUGUUACGCCGUUCGGAUCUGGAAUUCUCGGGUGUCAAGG", "log2 enrichment": -0.468}
{"Strand": "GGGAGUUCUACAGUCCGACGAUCAGUCCUGUGCUACACAUCGUAUGUACCGAAUCGGUUUUUUUGGUUUUUGGUUUUUGGAAAGUAUUAUGUUACGCCGUUCGGAUCUGCACUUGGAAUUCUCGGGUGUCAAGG", "log2 enrichment": -1.41}
{"Strand": "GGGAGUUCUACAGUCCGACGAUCGCAGGAAGUAAAAACAAAUGGAAAUGCUUCGGAUAGUGGCAGGGGUGGGCGUUGCUAAGGAAAGGGUGGGAUGGGAGUGGGUAAAGAGUUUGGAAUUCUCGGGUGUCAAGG", "log2 enrichment": 0.798}
{"data": "Block 3", "target": "Histone acetyltransferase KAT6A, both winged helices, GST fusion (KAT6A, Homo sapiens, UniProt Q92794, residues 1-181)", "method": "protein binding microarray", "molecule type": "double-stranded DNA, one strand shown", "sample": "in vitro", "concentration": "not given", "setting": "8-mer, flanks averaged, mean of 2 arrays, mostly near background", "relative to": "not given", "direction": "higher = stronger binding", "Construct (chain)": "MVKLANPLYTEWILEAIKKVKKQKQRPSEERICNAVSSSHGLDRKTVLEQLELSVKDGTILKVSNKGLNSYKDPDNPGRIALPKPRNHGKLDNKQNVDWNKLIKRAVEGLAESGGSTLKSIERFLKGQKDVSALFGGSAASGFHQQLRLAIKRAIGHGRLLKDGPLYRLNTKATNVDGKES"}
{"Strand": "CCACTAGG", "E-score": -0.191}
{"Strand": "CCATTAAG", "E-score": -0.106}
{"Strand": "CCAGGGGA", "E-score": -0.215}
{"Strand": "CCCACTAA", "E-score": -0.23}
{"Strand": "CGTACAAG", "E-score": 0.0478}
{"Strand": "GCCCCTAA", "E-score": -0.166}
{"Strand": "GTGCTACA", "E-score": -0.277}
{"data": "Single results of other studies"}
{"Substance": "PhoQ, residues 284 288 289 292 302 303 SCKMEA", "target": "PhoP, residues 12 14 15 18 19 HLGGL (Escherichia coli, UniProt P23836)", "test": "Sort-seq, refers to: YFP reporter", "test system": "E. coli", "setting": "PhoQ-PhoP variant library, added: 10 µM Mg2+", "scale": "relative to: high Mg2+ state, higher = stronger signaling", "measurement": "fold induction", "value": 11.5}
{"note": "For quick reference, copied from above (block 3):"}
{"Strand": "GCCCCTAA", "E-score": -0.166}
{"Strand": "GTGCTACA", "E-score": -0.277}
